Assay results of several laboratories.
Each numbered part is a random draw from the data of one study; scales do not carry over between parts. Substitutions count along the parent as printed.
Sequence of UniProt Q9UQM7 (whole entry, looked up): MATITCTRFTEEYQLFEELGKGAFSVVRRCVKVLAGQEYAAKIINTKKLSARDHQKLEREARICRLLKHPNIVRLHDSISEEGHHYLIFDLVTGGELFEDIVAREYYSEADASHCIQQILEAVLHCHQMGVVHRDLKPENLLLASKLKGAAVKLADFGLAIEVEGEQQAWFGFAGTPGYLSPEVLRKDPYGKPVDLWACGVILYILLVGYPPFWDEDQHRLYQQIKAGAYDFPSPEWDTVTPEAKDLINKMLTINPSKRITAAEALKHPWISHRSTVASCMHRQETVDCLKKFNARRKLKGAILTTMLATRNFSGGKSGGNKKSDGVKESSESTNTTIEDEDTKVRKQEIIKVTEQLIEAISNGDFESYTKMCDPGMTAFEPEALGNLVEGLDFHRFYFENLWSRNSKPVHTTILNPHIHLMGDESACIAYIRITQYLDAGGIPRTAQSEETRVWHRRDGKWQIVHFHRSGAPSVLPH

Series 1
Target: HLA class I histocompatibility antigen, A alpha chain, allele A*80:01 (Homo sapiens, UniProt P04439)
Observed: peptide-MHC binding
Molecule type: peptide
Concentration: concentration not given
| Molecule | binding |
| --- | --- |
| QAHMGIAGL | inactive |
| FLILPQAKK | inactive |
| IEAKINVAD | inactive |
| KFRDMITFR | inactive |
| MLTNASGHA | inactive |
| NHYLCLNCL | inactive |
| ALRRRTGTR | inactive |
| FTRYRKEAI | inactive |

Series 2
Target: UBE2D2 UBC core domain (UniProt P62837)
Sequence of UniProt P62837 (whole entry, looked up): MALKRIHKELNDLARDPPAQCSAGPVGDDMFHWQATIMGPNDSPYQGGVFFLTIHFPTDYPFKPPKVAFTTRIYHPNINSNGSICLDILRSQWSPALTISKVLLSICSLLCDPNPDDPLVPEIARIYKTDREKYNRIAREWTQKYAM
Technique: yeast two-hybrid
Matrix: yeast
Setting: mostly zero background
Relative to: not given
Direction: higher = stronger interaction
B1: SH3RF2 RING domain (UniProt Q8TEC5); chain DDLTLLDLLECPVCFEKLDVTAKVLPCQHTFCKPCLQRVFKAHKELRCPECRTPVFSNIEAL
B2: TRIM5 RING domain (UniProt Q9C035); chain LREVKLSPEGQKVDHCARHGEKLLLFCQEDGKVICWLCERSQEHRGHHTFLTEEVAREYQVKL
B3: TRIM4 RING domain (UniProt Q9C037); chain EAEDIQEELTCPICLDYFQDPVSIECGHNFCRGCLHRNWAPGGGPFPCPECRHPSAPAALRP
B4: TRIM13 RING domain (UniProt O60858); chain MELLEEDLTCPICCSLFDDPRVLPCSHNFCKKCLEGILEGSVRNSLWRPAPFKCPTCRKETSATGINS
B5: VPS41 RING domain (UniProt P49754); chain KGVLVDEENICESCLSPILPSDAAKPFSVVVFHCRHMFHKECLPMPSMNSAAQFCNICSAKNRGPGSAI
| Molecule | lacZ reporter activity |
| --- | --- |
| B1 (SH3RF2 RING domain) | 0 |
| B2 (TRIM5 RING domain) | 0 |
| QVDKAVFHMQSVKCLKCQEQKRAVLPCQHAALCELCAEGSECPICQPGRAHTLQS (UNK RING domain (UniProt Q9C0B0)) | 0 |
| B3 (TRIM4 RING domain) | 0 |
| FQGDVDEDLICPICSGVLEEPVQAPHCEHAFCNACITQWFSQQQTCPVDRSVVTVAHLRP (RNF41 RING domain (UniProt Q9H4P4)) | 0 |
| B4 (TRIM13 RING domain) | 0 |
| B5 (VPS41 RING domain) | 0 |
| GAAPGPEAAECLVCSELALLVLFSPCQHRTVCEECARRMKKCIRCQVVVSKKLRPD (MIB2 RING domain (UniProt Q96AX9)) | 0 |

Series 3
Target: CCNE1, cyclin fold, Cln2 fusion (human)
Technique: yeast growth competition, sequencing
Matrix: yeast
Setting: strong parent motif
Relative to: not given
Direction: higher = stronger binding
Starting sequence: viral docking peptide; KKAKRRLFTISDS
| Variant | normalised enrichment score |
| --- | --- |
| KKAKRRLFTISDA [S13A] | 3.31 |
| KKAKRRAFTISDS [L7A] | 0.11 |
| KKAKKRLFTISDS [R5K] | 0.803 |
| KKAKRRLFTIADS [S11A] | 3.73 |
| KKAKRRLLTISDS [F8L] | 0.697 |
| KKAKARLFTISDS [R5A] | 1.54 |
| KKAKRRLATISDS [F8A] | 0.405 |
| KKAKRRLFAISDS [T9A] | 3.23 |

Single results of other studies
| Structure (SMILES) | target | observed | mode | concentration | measurement | result |
| --- | --- | --- | --- | --- | --- | --- |
| CC[C@@H]1CN2CC[C@]3(C(=O)Nc4ccccc43)[C@@H]2C[C@@H]1/C(=C\OC)C(=O)OC | Calcium/calmodulin-dependent protein kinase type II subunit alpha (CAMK2A, Homo sapiens, UniProt Q9UQM7) | enzyme activity | inhibitor | 10 µM | inhibition | -5% |

Repeated from above (series 2):
| Molecule | lacZ reporter activity |
| --- | --- |
| B2 (TRIM5 RING domain) | 0 |
